Results of several laboratories.
Each line is one published result; not all experiments were run side by side. Several values in a cell are separate wells, animals, samples, runs or records. ± gives the spread as reported.

SMILES	test	system	setting	scale	quantity	value
CO[C@H]1C[C@@H]2CC[C@@H](C)[C@@](O)(O2)C(=O)C(=O)N2CCCC[C@H]2C(=O)O[C@H]([C@H](C)C[C@@H]2CC[C@@H](OC(=O)NCCOCCOCCOCCOCCOCCOCCOCCOCCC(=O)N3CCc4cc(Cn5nc(-c6ccc7oc(N)nc7c6)c6c(N)ncnc65)ccc4C3)[C@H](OC)C2)C[C@@H](O)[C@H](C)/C=C(\C)[C@@H](O)[C@@H](OC)C(=O)[C@H](C)C[C@H](C)/C=C/C=C/C=C/1C		patients with advanced solid tumours	intravenous, 12 mg weekly, any grade		constipation incidence	25%
CC(=O)c1c(C)c2cnc(Nc3ccc(C4CCN(CCS(C)(=O)=O)CC4)cn3)nc2n(C2CCCC2)c1=O		HR+/HER2- advanced breast cancer patients	oral, dose not given		patients with TEAE ≥grade 3	73.7%
Oc1cc(Cl)cc(-c2cc(Cl)ccc2Cl)c1Cl		Sprague Dawley rat, female, adipose tissue, wet weight	intraperitoneal, 100 mg/kg, 3 weeks		concentration	1.24 ng/g
NCCCC[C@@H]1NC(=O)[C@@H](Cc2c[nH]c3ccccc23)NC(=O)[C@H](c2ccccc2)NC(=O)[C@@H]2C[C@@H](OC(=O)NCCN)CN2C(=O)[C@H](Cc2ccccc2)NC(=O)[C@H](Cc2ccc(OCc3ccccc3)cc2)NC1=O		healthy volunteers, female	600 µg twice daily, 1.5 h, post hoc		placebo-corrected QTcF change	11.7 ms
Cn1cncc1-c1c(F)cncc1NC(=O)c1c(N)nn2cc(F)cnc12		human patients	oral, up to 40 mg once daily, 21 days		upper gastrointestinal haemorrhage DLT	0%
CCN(CCO)CCCC(C)Nc1ccnc2cc(Cl)ccc12 (stereo not drawn)		newly diagnosed glioblastoma patients	oral, 400 mg/dose, grade 1, together with: radiotherapy plus temozolomide		lymphocyte count decreased patients	14%
COc1ccc(-c2c(-c3ccc(C#N)c(F)c3)nc(N3CCC(N)CC3)n(C)c2=O)cc1F	measured: wound infection	human patients	oral, dose not given, dose escalation		serious TEAE incidence	2%
O=C1NC(=O)C(c2ccccc2)(c2ccccc2)N1	PAMPA	pre-coated trilayer membrane	200 µM, 5 h, pH 7.4, donor plate, PBS		donor concentration	149.7 ± 1.4 µM
O=C(Nc1ccccc1)C1CCN(C(=O)Oc2cccnc2)CC1	Bond-Lader VAS	healthy women	oral, 60 mg	baseline: pre-dose baseline, direction not given	change in alertness score	-0.3
CC[C@H](C)[C@H](NC(=O)[C@H](CCCCN)NC(=O)[C@H](CCC(=O)O)NC(=O)[C@H](CCCCN)NC(=O)[C@H](CO)NC(=O)[C@H](CCCCN)NC(=O)[C@H](CCCNC(=N)N)NC(=O)[C@H](Cc1ccccc1)NC(=O)[C@H](Cc1ccccc1)NC(=O)[C@H](CC(=O)O)NC(=O)CNC(=O)[C@H](CC(C)C)NC(=O)[C@@H](N)CC(C)C)C(=O)NCC(=O)N[C@@H](CCCCN)C(=O)N[C@@H](CCC(=O)O)C(=O)N[C@@H](Cc1ccccc1)C(=O)N[C@@H](CCCCN)C(=O)N[C@@H](CCCNC(=N)N)C(=O)N[C@H](C(=O)N[C@H](C(=O)N[C@@H](CCC(N)=O)C(=O)N[C@@H](CCCNC(=N)N)C(=O)N[C@H](C(=O)N[C@@H](CCCCN)C(=O)N[C@@H](CC(=O)O)C(=O)N[C@@H](Cc1ccccc1)C(=O)N[C@@H](CC(C)C)C(=O)N[C@@H](CCCNC(=N)N)C(=O)N[C@@H](CC(N)=O)C(=O)N[C@@H](CC(C)C)C(=O)N[C@H](C(=O)N1CCC[C@H]1C(=O)N[C@@H](CCCNC(=N)N)C(=O)N[C@H](C(=O)N[C@@H](CCC(=O)O)C(=O)N[C@@H](CO)C(=O)O)[C@@H](C)O)C(C)C)[C@@H](C)CC)C(C)C)[C@@H](C)CC	LC-MS	buffer with trypsin	40 µM, 10 min, pH 7.5, 37 °C	baseline: 0 h	remaining intact peptide	31% and 27.8% and 34.1%
CC(C)C[C@H](NC(=O)[C@H](CCCCN)NC(=O)OCC1c2ccccc2-c2ccccc21)C(=O)N[C@H](C(=O)N[C@@H](Cc1ccccc1)C(=O)N[C@@H](Cc1ccccc1)C(=O)N[C@@H](CCCCN)C(=O)NCC(=O)N[C@@H](Cc1ccccc1)C(=O)N[C@@H](C)C(=O)N[C@@H](Cc1c[nH]c2ccccc12)C(=O)N[C@@H](CC(N)=O)C(=O)N[C@H](C(=O)N[C@H]1CSSC[C@@H](C(=O)N[C@@H](Cc2c[nH]cn2)C(=O)N[C@@H](CCCNC(=N)N)C(=O)N[C@@H](CCCNC(=N)N)C(=O)N[C@@H](C)C(=O)N[C@@H](CC(N)=O)C(N)=O)NC(=O)[C@H](C(C)C)NC(=O)[C@H](CCCNC(=N)N)NC(=O)[C@H](C(C)C)NC(=O)CNC(=O)[C@H](CC(N)=O)NC(=O)[C@H](CCCNC(=N)N)NC(=O)[C@H](Cc2ccc(O)cc2)NC(=O)[C@H](C(C)C)NC1=O)C(C)C)C(C)C		ICR mice, blood	intraperitoneal, 5 mg/kg, day 5		basophils	1.47 ± 0.09%
Cc1cccc(Cn2nc(C3CC3)c3c(NC(=O)c4cnc5cc(OCCN6CCN(C)CC6)ccn45)cccc32)n1	CTCAE v4.03, measured: decreased appetite	advanced solid tumour patients	oral, dose not given, all cohorts, together with: pembrolizumab IV every 3 weeks		all-cause adverse events	24.6%
C[C@@H](NC(=O)N1C(=O)[C@H](Cc2ccnc(N)c2)[C@H]1C(=O)O)C1CCCCC1		healthy adult Chinese volunteers	continuous intravenous infusion, 0.3 mg/kg/h, 5-day infusion, CTCAE 5.0 grading		incidence of AEs excluding prolonged aPTT	50%
CN(C(=O)n1cnc(-c2ccc[n+]([O-])c2)c1)C1CCCCC1		Wistar rat, cerebellum	oral, 10 mg/kg/day, 24 h, repeated 5 days		concentration	17.5 ± 0.7 ng/g
O=S(=O)(Nc1ccccc1)c1ccc(NC(=S)Nc2ccccc2)cc1		female mice, heart	oral, 5 mg/kg daily 14 days	baseline: body weight	relative organ weight	0.48%
CC(C)c1nc(N(C)S(C)(=O)=O)nc(-c2ccc(F)cc2)c1/C=C/[C@@H](O)C[C@@H](O)CC(=O)O		healthy human subjects	oral, dose not given, study CL-0537 safety set		incidence of Dysmenorrhea	3.6%
COc1ncccc1-c1cnn2ccc(N3CCN(C(=O)OC(C)C)CC3)nc12		mouse nerve ligation model, plasma	oral, 30 mg/kg, 180 min after last dose, repeat dosing day 1		drug concentration	4.2 µM
O=C(O)CCCOc1ccc(F)cc1-c1cc(-c2ccccc2C(F)(F)F)n(-c2ccccc2)n1		Crl:CD(SD) rat, female	intravenous, 25 µg/kg, 1 days post-dose		albumin fraction of serum protein	52.4 ± 1.3%

SMILES	test	system	setting	scale	quantity	value
C[C@@H]1OC(=O)NN=C1c1ccc(-c2ccc(F)cc2)c(C(F)(F)F)c1	phase I trial, measured: Diarrhoea all grades	human patients	20 mg loading then 1 mg daily		patients with adverse event	0%
CN1CC[C@@H](c2c(O)cc(O)c3c(=O)cc(-c4ccc(C(F)(F)F)cc4Cl)oc23)[C@@H]1CO	measured: Anemia	relapsed or refractory haematological malignancies	oral, dose not given, grade 3 to 4		adverse event incidence	17.5%
CC[C@H](C)[C@H](NC(=O)[C@H](CCCCN)NC(=O)[C@H](CC(=O)O)NC(=O)[C@H](CC(C)C)NC(=O)[C@@H](NC(=O)[C@H](CC(N)=O)NC(=O)[C@H](CC(C)C)NC(=O)[C@@H](NC(=O)[C@H](Cc1ccccc1)NC(=O)[C@H](CCCCN)NC(=O)[C@H](CCCCN)NC(=O)CNC(=O)[C@H](C)NC(=O)[C@H](CC(N)=O)NC(=O)[C@H](CCCCN)NC(=O)[C@H](Cc1ccccc1)NC(=O)[C@H](CC(N)=O)NC(=O)[C@H](CCC(=O)O)NC(=O)[C@H](Cc1c[nH]c2ccccc12)NC(=O)[C@H](CC(C)C)NC(=O)[C@@H](N)CO)[C@@H](C)CC)[C@@H](C)CC)C(=O)N[C@@H](CCCNC(=N)N)C(=O)N[C@H]1CSSC[C@@H](C(=O)N[C@@H](CCCNC(=N)N)C(N)=O)NC(=O)CNC(=O)CNC(=O)[C@H](C)NC(=O)[C@H](C(C)C)NC(=O)[C@H](CCCNC(=N)N)NC1=O		horse erythrocytes	2 h, 37 °C	baseline: Triton X-100	HC50	58.9 µM
Cc1c(COC(=O)[C@@H]2[C@H](/C=C(\Cl)C(F)(F)F)C2(C)C)cccc1-c1ccccc1 (racemic)	measured: CYP3A4	human, age 5 years, recombinant human CYP3A4	0.1 µM		enzyme contribution to clearance	17.5%
C=CCNc1c(O)cc2c(O)c1C[C@@H](C)C[C@H](OC)[C@H](O)[C@@H](C)/C=C(\C)[C@H](OC(N)=O)[C@@H](OC)/C=C\C=C(/C)C(=O)N2		unresectable or metastatic STS, GIST, other	intravenous, 150 mg/m^2		patients with back pain TEAE	67%
O=C1Nc2cc3[nH]nc(-c4ccncc4)c3cc2CN1Cc1ccccc1	CTCAE v4.03	advanced solid tumour patients	intravenous, 7.2 mg/kg, schedules 1/2		patients with blurred vision	40%
COc1ccc2nc3cc(Cl)ccc3c(Nc3cc(CN4CCCC4)c(O)c(CN4CCCC4)c3)c2n1		mouse, blood	oral, 57 mg/kg		urea level	2.65 µmol/L
CCc1ccc(CC/C=C/c2ccc3c(c2)C(=O)CC3)cc1		Sprague-Dawley rat, male	oral, 120 mg/kg/day, 14 days		Eosinophil percentage	0.7%
CN1CCN(S(=O)(=O)c2cc([N+](=O)[O-])ccc2N(CCOS(C)(=O)=O)CCOS(C)(=O)=O)CC1		naive NOD/SCID mice, pooled blood	intraperitoneal, 12.5 mg/kg, week 4		blood urea nitrogen	11.4 mmol/L
C[C@]1(CO)Cc2ncn(-c3ccc(C#N)c(Cl)c3)c2C(=O)O1		Japanese subjects	20 mg single dose		drug-related Dizziness incidence	16.7%
CCCCCOc1ccc(-c2ccc(-c3ccc(C(=O)N[C@H]4C[C@@H](O)[C@@H](OCC[N+](C)(C)C)NC(=O)[C@@H]5[C@@H](O)[C@@H](C)CN5C(=O)[C@H]([C@@H](C)O)NC(=O)[C@H]([C@H](O)[C@@H](O)c5ccc(O)cc5)NC(=O)[C@@H]5C[C@@H](O)CN5C(=O)[C@H]([C@@H](C)O)NC4=O)cc3)cc2)cc1		adult ICU patients, mITT, serum	dose not given, EOT		bilirubin	13.3 µmol/L
COc1cc2c(Oc3ccc4[nH]c(C)cc4c3F)ccnc2cc1OCC1(N)CC1		paediatric refractory sarcoma patients	12 mg		sinus tachycardia incidence	18.2%
C=CC(=O)Nc1cc(Nc2nccc(Nc3cc(Cl)c(F)cc3C(C)(C)O)n2)c(OC)cc1N1CC[C@@H](N(C)C)C1		human patients	oral, 300 mg, treatment-emergent adverse events		patients with rash	45.1%
CC(C)C[C@H](NC(=O)[C@H](CCC1CCCCC1)NC(=O)[C@@H]1CCCN1C(=O)c1ccc(F)cc1)C(=O)NC(C)(C)C(=O)N[C@@H](CC(C)C)C(=O)N[C@@H](CC(C)C)C(=O)NC(C)(C)C(=O)NC(C)(C)C(=O)NCCC(=O)NC1(CN(C)C)CCC1	circular dichroism	phosphate buffer	pH 7.4, 20 °C		alpha-helix content	75.7%
COc1ncnn2ccc(-c3cnc4nc(C)n(Cc5nnc([C@@H](C)F)o5)c4c3)c12		human	oral, dose not given, grade 2		patients with hypotension	14.3%
CN[C@@H](C)C(=O)N[C@H]1CN(S(=O)(=O)c2cccc(S(=O)(=O)N3CC[C@H]4CC[C@@H](C(=O)NC(c5ccccc5)c5ccccc5)N4C(=O)[C@@H](NC(=O)[C@H](C)NC)C3)c2)CC[C@H]2CC[C@@H](C(=O)NC(c3ccccc3)c3ccccc3)N2C1=O		patients with advanced solid tumours	0.3 mg, phase I monotherapy		treatment-related pruritus incidence	0%
COc1cc2c(cc1OC)CN(CCc1ccc(NC(=O)c3cccc4c(=O)c5cccc(OC)c5[nH]c34)cc1)CC2		CD-1 mouse, male, plasma	intraperitoneal, 3 mg/kg		AUC(0-inf)	2580 ng·h/mL
COc1ccc(C[C@@H]2NC(=O)[C@H]([C@@H](C)O)NC(=O)[C@@H]3[C@@H]4CCN3C(=O)[C@@H]3Cc5cn(c6ccc(F)cc56)CCCCCCN(Cc5ccc(cc5)CCNC(=O)[C@]5(C)CCCN5C2=O)C(=O)CCC(=O)N[C@@H](C)C(=O)N[C@H](CNC(=O)CCCCC[N+](C)(C)C)C(=O)N[C@@H](Cc2cccc(c2)CNC(=O)CO4)C(=O)N3)cc1	measured: decreased appetite	human	dose not given		participants with adverse event	0%

A few entries again:
SMILES	test	system	setting	scale	quantity	value
CC(C)C[C@H](NC(=O)[C@H](CCC1CCCCC1)NC(=O)[C@@H]1CCCN1C(=O)c1ccc(F)cc1)C(=O)NC(C)(C)C(=O)N[C@@H](CC(C)C)C(=O)N[C@@H](CC(C)C)C(=O)NC(C)(C)C(=O)NC(C)(C)C(=O)NCCC(=O)NC1(CN(C)C)CCC1	circular dichroism	phosphate buffer	pH 7.4, 20 °C		alpha-helix content	75.7%
COc1ncnn2ccc(-c3cnc4nc(C)n(Cc5nnc([C@@H](C)F)o5)c4c3)c12		human	oral, dose not given, grade 2		patients with hypotension	14.3%
CN[C@@H](C)C(=O)N[C@H]1CN(S(=O)(=O)c2cccc(S(=O)(=O)N3CC[C@H]4CC[C@@H](C(=O)NC(c5ccccc5)c5ccccc5)N4C(=O)[C@@H](NC(=O)[C@H](C)NC)C3)c2)CC[C@H]2CC[C@@H](C(=O)NC(c3ccccc3)c3ccccc3)N2C1=O		patients with advanced solid tumours	0.3 mg, phase I monotherapy		treatment-related pruritus incidence	0%
COc1cc2c(cc1OC)CN(CCc1ccc(NC(=O)c3cccc4c(=O)c5cccc(OC)c5[nH]c34)cc1)CC2		CD-1 mouse, male, plasma	intraperitoneal, 3 mg/kg		AUC(0-inf)	2580 ng·h/mL
COc1ccc(C[C@@H]2NC(=O)[C@H]([C@@H](C)O)NC(=O)[C@@H]3[C@@H]4CCN3C(=O)[C@@H]3Cc5cn(c6ccc(F)cc56)CCCCCCN(Cc5ccc(cc5)CCNC(=O)[C@]5(C)CCCN5C2=O)C(=O)CCC(=O)N[C@@H](C)C(=O)N[C@H](CNC(=O)CCCCC[N+](C)(C)C)C(=O)N[C@@H](Cc2cccc(c2)CNC(=O)CO4)C(=O)N3)cc1	measured: decreased appetite	human	dose not given		participants with adverse event	0%
